# Published values of several laboratories.
# Numbered parts are unrelated; each lists some results of a single study. Positions count from the first letter of the parent shown.

# Block 1
# Target: NFIL3, bZIP domain (human)
# Method: DHFR protein complementation
# Matrix: yeast
# Notes: single substitutions, most at no-binding floor
# Baseline: wild-type JUN-FOS pair
# Reading: higher = stronger binding
# Parent: JUN, bZIP domain (human); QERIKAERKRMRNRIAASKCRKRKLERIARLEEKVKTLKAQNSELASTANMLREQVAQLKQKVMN; partner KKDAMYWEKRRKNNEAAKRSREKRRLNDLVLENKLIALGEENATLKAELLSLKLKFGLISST
Substitution,binding fitness
L31V,-1.49 natural log
A46D,-1.49 natural log
L38T,-1.56 natural log
T48K,-1.3 natural log
S43R,-1.45 natural log
L45I,-1.51 natural log
Q55G,-1.51 natural log
V56Q,-1.49 natural log
E44S,-1.54 natural log
A49C,-1.42 natural log
A46C,-1.34 natural log
S47E,-1.4 natural log
K34L,-1.5 natural log
V35T,-1.56 natural log
M51A,-1.34 natural log
R30N,-1.39 natural log

# Block 2
# Target: ABI1, truncated, D143A, DHFR fusion (Arabidopsis thaliana)
# Method: DHFR PCA, deep sequencing
# Matrix: yeast
# Notes: methotrexate growth selection, single substitutions
# Added: (+)-ABA 710 µM
# Baseline: wild-type fitted maximum
# Reading: higher = stronger binding
# Parent: PYL1, truncated, DHFR fusion (Arabidopsis thaliana); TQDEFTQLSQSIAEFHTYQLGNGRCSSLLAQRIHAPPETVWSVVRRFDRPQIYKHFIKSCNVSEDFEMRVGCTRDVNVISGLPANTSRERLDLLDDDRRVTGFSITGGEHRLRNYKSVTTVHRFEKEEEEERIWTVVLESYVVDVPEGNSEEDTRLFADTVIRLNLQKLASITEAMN; partner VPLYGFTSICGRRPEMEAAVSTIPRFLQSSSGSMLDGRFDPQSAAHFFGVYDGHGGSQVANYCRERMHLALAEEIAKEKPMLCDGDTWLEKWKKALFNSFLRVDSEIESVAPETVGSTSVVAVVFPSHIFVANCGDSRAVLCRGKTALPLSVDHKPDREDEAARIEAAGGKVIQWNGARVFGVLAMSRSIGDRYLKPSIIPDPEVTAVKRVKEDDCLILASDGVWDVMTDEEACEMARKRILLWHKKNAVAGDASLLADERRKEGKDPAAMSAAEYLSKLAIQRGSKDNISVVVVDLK
Substitution,relative binding score
E128H,106%
E109F,89.3%
F56W,97.6%
Q19D,110%
P37S,89.4%
E127H,104%
K58I,80.8%
I12V,94.1%
D92L,80.2%
L20H,111%
N165V,2.46%
V44E,1.35%
V62A,87.3%
A35M,82.1%
S63R,105%
L82K,-29.4%

# Block 3
# Target: Fragile X messenger ribonucleoprotein 1, C-terminal low-complexity region (Fmr1, Mus musculus, UniProt P35922)
# Method: RNA Bind-n-Seq
# Form: RNA
# Matrix: in vitro
# Concentration: 200 nM
# Notes: whole 134-nt RNA, ends assumed
# Added: 150 mM LiCl
# Baseline: input library
# Reading: higher = stronger binding
# Each molecule: 7-deaza-guanosine replaces G
# All sequences stand within: GGGAGUUCUACAGUCCGACGAUC … UGGAAUUCUCGGGUGUCAAGG
Oligonucleotide,log2 enrichment
UAACUUUAGAGGAGGAUCUGAUGGAUAUGGCAGUGGACCUGGAUUUGGGGAUGGCUAUAAUGGGUAUGGAGGAGGACCUGGAGGUGGCAA,-0.0215
CUGUGCUACACAUCGUAUGUACCGAAUCGGGCCCCCCCGGGCCCCCCCGGGCCCCCCCGGGAAAGUAUUAUGUUACGCCGUUCGGAUCUG,-0.294
CCUGUGCUACACAUCGUAUGUACCGAAUCGGGGUUUUUUUGGGGUUUUUUUGGGGUGGGGAAAGUAUUAUGUUACGCCGUUCGGAUCUGC,-0.112
AAGUCCUGUGCUACACAUCGUAUGUACCGAAUCGGUUUUUGGUUUUUGGUUUUUGGGAAAGUAUUAUGUUACGCCGUUCGGAUCUGCACU,-1.67
AGUCCUGUGCUACACAUCGUAUGUACCGAAUCGGUUUUGGGGUUUUGGGUUUUGGGGAAAGUAUUAUGUUACGCCGUUCGGAUCUGCACU,-1.27
UGUGAGACUGAAGAUUAUGGAGAAAAGUUUGAUGAAAAUGAUGUGAUUACAUGUUUUGCUGUAAGUUAAAGCUAACUUUCUAUGUAUAAA,-2.03
ACCAUGCAGGUGGGCAUCUUUGGGAAGUGGAAAAAGGGGGGGAUAGGGAGGGGGGUAACACUUUGGGAACAGGUGGUCCCAGGUCGUUUC,1.37
UAACUUUAGAGGAGGAUCUGAUGGAUAUGGCAGUGGACGUGGAUUUGGGGAUGGCUAGAAUGGGUAUGGAGGAGGACCUGGAGGUGGCAA,1.37
GCAGGAAGUAAAAACAAAUGGAAAUGCUUCGGAUAAAAGCAGGGGUGGGGGUUGCUAAGGAAAGGGUGGGAUGGGAGUGGGUAAAGAGUU,1.75
CAAGUCCUGUGCUACACAUCGUAUGUACCGAAUCGGCCCCGGCCCCGGCCCCGGGGAAAGUAUUAUGUUACGCCGUUCGGAUCUGCACUU,-0.904
AGUCCUGUGCUACACAUCGUAUGUACCGAAUCAAAUUUAAACCCCCAAAUUUUUAAAAAAGUAUUAUGUUACGCCGUUCGGAUCUGCACU,-0.232

# Block 4
# Target: Phosphate system positive regulatory protein PHO4, full length, GST-tagged (PHO4, Saccharomyces cerevisiae, UniProt P07270, residues 1-312)
# Method: competition protein-binding microarray
# Form: double-stranded DNA, one strand shown
# Matrix: in vitro
# Concentration: 2 µM
# Notes: whole 60-bp probe, lowest competitor level
# Added: Cbf1 competitor, 0.05 µM
# Reading: higher = stronger binding
# All sequences stand within: … GTCTTGATTCGCTTGACGCTGCTG
# Residues (chain): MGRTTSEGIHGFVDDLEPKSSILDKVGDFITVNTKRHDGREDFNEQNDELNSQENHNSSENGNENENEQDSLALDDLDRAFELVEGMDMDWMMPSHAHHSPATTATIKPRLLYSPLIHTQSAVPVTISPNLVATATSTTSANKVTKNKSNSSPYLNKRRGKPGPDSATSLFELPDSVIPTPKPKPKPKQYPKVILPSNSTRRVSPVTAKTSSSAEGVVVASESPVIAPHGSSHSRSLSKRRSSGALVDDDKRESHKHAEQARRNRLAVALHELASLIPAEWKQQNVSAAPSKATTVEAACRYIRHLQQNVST
Oligonucleotide,fluorescence intensity
TGGTTCACAGCTAACCTTGTGACAGTTGCCTCGCTG,4550 a.u.
CGTCCTAGTGATTGGAGTGTGGGTGCCATGAGGAAG,7880 a.u.
AAGGTTTCGCCGTAGAACGTGCTTTCCAGTTCATGG,14600 a.u.
CGGGGTTAAGTTTGTCACCGTACTTGCTTGCAGCAG,3760 a.u.
GTCTTGTCTCATTGTCACAACACTTTCCCCACTTCA,4520 a.u.
CAGGAAAAGTCTTTGGTGTTTCCTTCTTTGTACATT,2550 a.u.
CGTCTAAAAGTTCGGCACGTGACAAACCTGGTATTT,17300 a.u.
CGGGGTTAAGTTTGCATGGTGGGTGGCTTGCAGCAG,6220 a.u.
TTTAACGCTTATGTACACGGGTGCAAAACTACCCCT,7200 a.u.
TGACCATTGACTTTGAACGTGGTCGTCCAGTAAAGT,10500 a.u.
AGCAACGACATTCCACACGTGGTGCGGTTCAGCGCG,17700 a.u.
CATACCCAACCTTGTCGGGTGGGTGAAGATATTTGT,3890 a.u.
CTAACGAAGGTTTTTCACGTGCTTTACAAGCCAAGT,14200 a.u.
TCCTCAGGGACCTCTCACGTGCCGAGTATCAGCCAG,13600 a.u.
AGATGATACTGTTTGCACGCAAATATAGGCTTGATT,5040 a.u.
AAAGCTGCGGTAAGGCAGGTGATGCTGATTATTAGC,5080 a.u.
TACTGAATGCTACTGACCGTGACGGTCTATCAGGCT,4180 a.u.
CTTCTGTAAATTTTTCACGTGGAGTGAAGCGCCCCG,13500 a.u.
CGGGGTTAAGTTTGTCTGGTGGGTGGCTTGCAGCAG,4650 a.u.
CGTCCTAGTGATTGCCGTGTGGGTGCCATGAGGAAG,8530 a.u.
AAAGCGGTAATTTGTGCGGTGGGTGCAGATATCTAT,4710 a.u.
CGGGGTTAAGTTTTTCACGTGTTTTGCTTGCAGCAG,13100 a.u.
GCTGCATAAAACAACCATGTGGAGTTTTTACTGTAT,9390 a.u.

# Block 5
# Target: CCNA1, cyclin fold, Cln2 fusion (human)
# Method: yeast growth competition, sequencing
# Matrix: yeast
# Notes: weak parent motif
# Baseline: not given
# Reading: higher = stronger binding
# Parent: PKMYT1 docking peptide (human); SFEPRNLLSLFED; partner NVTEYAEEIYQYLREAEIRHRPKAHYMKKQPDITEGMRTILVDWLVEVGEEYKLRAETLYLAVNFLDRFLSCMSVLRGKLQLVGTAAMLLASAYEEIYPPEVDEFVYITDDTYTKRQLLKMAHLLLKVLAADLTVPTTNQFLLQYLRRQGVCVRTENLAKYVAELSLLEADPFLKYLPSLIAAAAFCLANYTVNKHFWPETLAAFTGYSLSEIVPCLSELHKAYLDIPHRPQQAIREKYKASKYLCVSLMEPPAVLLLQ
Substitution,normalised enrichment score
F2R,0.384
L7N,0.158
R5C,0.0128
P4N,0.128
L10D,0.233
L8D,0.0182
L8V,0.0887
N6E,0.229
S1L,0.508
R5K F11L,-0.648
D13A,0.247
F11M,0.062
L8F,0.0722
D13R,-0.149
P4W,0.182
E12Y,0.277
F11N,0.304
F2T,0.399
N6P,0.336
R5Y,0.177
L10I,0.579
L8N,0.316
F11E,0.308
F2E,-0.119
R5H,-0.17

# Repeated from above (block 5):
Substitution,normalised enrichment score
F2E,-0.119
P4N,0.128
R5H,-0.17
F11E,0.308
F11N,0.304
